Results gathered from unrelated publications.
Each numbered part is a random draw from the data of one study; scales do not carry over between parts. Substitutions count along the parent as printed.

Set 1 — technique: RNA Bind-n-Seq; form: RNA; sample: in vitro; concentration: 200 nM; notes: whole 134-nt RNA, ends assumed; added: 150 mM KCl; baseline: input library; reading: higher = stronger binding; endpoint: log2 enrichment
Target: Fragile X messenger ribonucleoprotein 1, C-terminal low-complexity region (Fmr1, Mus musculus, UniProt P35922)
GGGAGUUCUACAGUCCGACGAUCUCUUUAUUUGAGCCAGUCUUGCAAGGUUAACUUCUCACUGGGCCUAGUGUGGUGCCCAGGUUUUUGCCUUGCUUCACUUCUGUCUCUACAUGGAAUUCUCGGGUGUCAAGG: -1.08
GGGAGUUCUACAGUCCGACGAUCCAAGUCCUGUGCUACACAUCGUAUGUACCGAAUCGGGGUGGGGUGGGGUUUGGGGAAAGUAUUAUGUUACGCCGUUCGGAUCUGCACUUCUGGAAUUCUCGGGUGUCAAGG: 1.12
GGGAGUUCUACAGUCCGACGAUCGUCCUGUGCUACACAUCGUAUGUACCGAAUCAAAUUUAAACCCCCAAACCCCCCCAAAAAAGUAUUAUGUUACGCCGUUCGGAUCUGCACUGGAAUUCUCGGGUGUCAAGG: -0.213
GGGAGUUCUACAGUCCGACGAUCUCCAUGCAGGUGGGCAUCUUUGGGAAGUGGGGCAAGGGGGGGAUAGGGAGGGGGGUAACACUUUGGGAACAGGUGGUCCCAGGUCGUUUCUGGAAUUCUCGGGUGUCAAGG: 0.84
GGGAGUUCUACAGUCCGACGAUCGUCCUGUGCUACACAUCGUAUGUACCGAAUCGGGGUGGGGAAAAAGGGGUUUUUGGGGAAAGUAUUAUGUUACGCCGUUCGGAUCUGCACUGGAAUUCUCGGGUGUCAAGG: 0.58
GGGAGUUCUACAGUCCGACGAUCAAGUCCUGUGCUACACAUCGUAUGUACCGAAUCGGGCCCCGGGCCCCGGGGCCCCGGAAAGUAUUAUGUUACGCCGUUCGGAUCUGCACUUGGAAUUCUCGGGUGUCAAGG: 1.24
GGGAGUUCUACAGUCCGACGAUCCUGUGCUACACAUCGUAUGUACCGAAUCGGGGUUUUUGGGGAAAAAGGGGUUUUUUUGGGGAAAGUAUUAUGUUACGCCGUUCGGAUCUGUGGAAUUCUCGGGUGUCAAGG: 0.149
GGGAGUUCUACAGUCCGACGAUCCUGUGCUACACAUCGUAUGUACCGAAUCGGGGUUUUUUGGGGUUUUUUGGGGUUUUUUGGGAAAGUAUUAUGUUACGCCGUUCGGAUCUGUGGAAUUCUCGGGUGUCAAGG: -0.174
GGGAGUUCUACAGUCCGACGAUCGUCCUGUGCUACACAUCGUAUGUACCGAAUCGGGUUUUUGGGUUUUUGGGAAAAAGGGAAAGUAUUAUGUUACGCCGUUCGGAUCUGCACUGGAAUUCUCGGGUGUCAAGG: -0.235
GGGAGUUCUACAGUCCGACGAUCGUCCUGUGCUACACAUCGUAUGUACCGAAUCAAACCCCCAAACCCAAAUUUUUUUAAAAAAGUAUUAUGUUACGCCGUUCGGAUCUGCACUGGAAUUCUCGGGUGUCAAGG: -0.0255

Set 2 — target: CCNE2, cyclin fold, Cln2 fusion (human); technique: yeast growth competition, sequencing; sample: yeast; notes: strong parent motif; baseline: not given; reading: higher = stronger binding; endpoint: normalised enrichment score
Parent: E2F1 docking peptide (human); PPVKRRLDLETDH
CPVKRRLDLETDH [P1C]: 1.42
PPVKRRLDLEFDH [T11F]: 2.44
PPTKRRLDLETDH [V3T]: 0.621
PPVKRRLDLETDI [H13I]: 1.38
PPVKRRTDLETDH [L7T]: 0.393
PPVCRRLDLETDH [K4C]: 1.47
PPVKRRLDLETDW [H13W]: 1.55
PPLKRRLDLETDH [V3L]: -0.503
PPVRRRLDLETDH [K4R]: 1.87
PPVKRVLDLETDH [R6V]: 0.568
PDVKRRLDLETDH [P2D]: 0.828
PPVKRRVDLETDH [L7V]: -0.176
PPVKRRLDLDTDH [E10D]: 2.26
PPVKKRLDLETDH [R5K]: -0.237
PPVYRRLDLETDH [K4Y]: -0.0457
PPVKRRLHLETDH [D8H]: 0.469
PPVKRRLDLETVH [D12V]: 2.24
PPVKRRLDLITDH [E10I]: 1.19

Set 3 — technique: RNA Bind-n-Seq; form: RNA; sample: in vitro; concentration: 365 nM; baseline: no-protein control; reading: higher = stronger binding; endpoint: RBNS enrichment (R)
Target: RNA binding protein fox-1 homolog 2, RRM domain, GST-SBP tag (RBFOX2, Homo sapiens, UniProt O43251-10, residues 100-194)
Notes: natural RNA segment, single round, ends assumed
Residues (chain): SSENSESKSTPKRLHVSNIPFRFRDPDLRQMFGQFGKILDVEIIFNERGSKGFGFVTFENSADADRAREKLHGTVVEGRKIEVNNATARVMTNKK
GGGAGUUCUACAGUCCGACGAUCGUUAUAUAUAAUUAUCCCUUUAAUUAAAGGGAACAGAUGGGCGUUUCUAGUUUUAAGCAGGCAGGAGCUUGGGACUAGGUUUGGUCACAGCAGCGAGCAUCCAAGGGUUGUGGAAUUCUCGGGUGCCAA: 1.04
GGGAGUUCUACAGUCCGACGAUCUUAUUUUUUGAUGGUAAUAUUCUAUCCUUAUGACACUAUUGCAACCAAAUUGGCUUUACCAUCUUGGCUUUAGUAGGUAUAGAAGACAAUGGAUUACCAUCUUUAUUGCUUGGAAUUCUCGGGUGCCAA: 0.516
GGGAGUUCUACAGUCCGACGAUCGCCAACGUAGCUGAUGCUCAGGGUCAGGCCUCGCCCCUUCGCCGCAGGUCUCAGGAUCGGGGAUAACAUCGCUCCCACCCUGCUCAUUUAGAGAUGGGAAACAAGCAAGAUGGAAUUCUCGGGUGCCAA: 0.379
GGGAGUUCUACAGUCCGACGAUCUUAAUCCUCACAAUAGCCCUGUAAGGUUGCACCUAUUAUCUCCACUUUGACCACGAAGAAACGGAGACUCAGAGAGUUUGUAUCCUAUGUGUAAGAUCACACAGUUGUCAUGGAAUUCUCGGGUGCCAA: 0.443
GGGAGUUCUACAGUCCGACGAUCAGGUGGUAUGGAAGCCUGCAUGCGUGUUCAACUCUGUUCCUCCUCCCUCCUCCUCGGCCUCCCUCCUCCCCUCCUUCGCUCGCUCAACCUCUUUUGUUCAGUACGUGUAAUGGAAUUCUCGGGUGCCAA: 7.23
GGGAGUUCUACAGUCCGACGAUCUGCUAUGAUACUGUUUAGCAUUUGCUCUGCUGCCUAUCUUUCUCUGUUUUUAAUUAACAAUUGGAUUUUAUUGGAAGAAGAAAAAGCAGUUUCAUUAUUUUGGAUGAUGAUGGAAUUCUCGGGUGCCAA: 0.398
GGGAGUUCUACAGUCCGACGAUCAGGACUCUGCGGAUCAGUGCUACAGGAGUACAUCUGCCCUGCCACAUGACUCCAGAAGUCUCUGACCCCAUUUGUUUUUAAUGGCAUCAGCCAAUGAGUUAUCACCCUUUUGGAAUUCUCGGGUGCCAA: 0.374
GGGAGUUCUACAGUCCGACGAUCAUCUUCCUUCUGUGUUUUACUCGGCUCAUUGCUUCUCUGGAGACAAAUGCAAUGCUUCCUACCCCCGUCCUGUCACAGGCAGUCUGAGGACUCACCUUCACACGUGAGACUGGAAUUCUCGGGUGCCAA: 0.337
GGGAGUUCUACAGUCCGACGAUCUUAUAAUCUGAUGGAGAGAGACACCCGUCUUGGAACUGACAUAAAUUUCUGGGGUUUGAGAAAUGGGCGGGAUUUCACUGGUAGCUUCUGGAAGGUAAGAGUUGUCCAGGUGGAAUUCUCGGGUGCCAA: 0.943
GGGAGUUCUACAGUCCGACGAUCGGUACCUAACUUGGGCACAGCUGUAACUGAAGACCUAAUGAAGUAGUCAGAUGCUUACAACUAUUUAUAAUGCAUCAAUUUGAACUUAGAAGGUAGGAGAUCAGAUCAUAUGGAAUUCUCGGGUGCCAA: 0.64
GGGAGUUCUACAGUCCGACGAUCUGUCUUAAAUACUUGCACUAAAUAGUGCACUGCAAGACCAGAAAAUUUUACAAUAUUUUUUCUUUACAAUAUGUUCUGUAGUAUGUUUACCCUCUUUAUGAAGUGAAUUAUGGAAUUCUCGGGUGCCAA: 0.7
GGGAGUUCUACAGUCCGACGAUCUGUAGCUGUGAGGCUCAGAUGGACUGGGAGGAGGGGGGAGGGUGAUACAUUAAUUAAUGGCUUCGUUAAUUAAUGUCAUGUUGCUUGUUGCUUUCUCAGUGUGUGUAUGGUGGAAUUCUCGGGUGCCAA: 0.769

Set 4 — technique: protein binding microarray; form: double-stranded DNA, one strand shown; sample: in vitro; concentration: not given; baseline: not given; reading: higher = stronger binding; endpoint: E-score
Target: Histone acetyltransferase KAT6A, winged helix 2, GST fusion (KAT6A, Homo sapiens, UniProt Q92794, residues 85-181)
Notes: 8-mer, flanks averaged, mean of 2 arrays, mostly near background
Target sequence (chain): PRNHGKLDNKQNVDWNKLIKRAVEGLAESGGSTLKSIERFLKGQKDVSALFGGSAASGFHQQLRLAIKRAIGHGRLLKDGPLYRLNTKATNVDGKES
CCCTCGAC: -0.0012
CTCGCTCA: 0.271
TAGTGACA: -0.0139
ACCATCAC: -0.207
AATTGAAG: 0.0375
CAACGTGG: 0.044
TCAGCTCA: 0.0563
AGTAAGCA: -0.0817
CAATGAAC: -0.0695
AGGTAATA: -0.116
ATAAAATA: 0.0446
CGCCTCCA: 0.0799
GAGTCGGA: -0.16
CGCTATAG: -0.255
GGTCCTAA: -0.0409
ACTGTGAA: -0.00138
CTCGTGGA: -0.104
AATGCCGT: 0.072
CAGTATTC: -0.0805
GGCCACAA: 0.0339
ATTCCTTA: -0.176
ATTTATTA: 0.0205
CTTTGTTC: 0.0768
ACTTATTG: -0.277

A few entries again (set 2):
PPVKRRLDLETDI [H13I]: 1.38
PPVKRRLHLETDH [D8H]: 0.469
PPVKRRLDLDTDH [E10D]: 2.26
PPVKRRLDLEFDH [T11F]: 2.44
PPVKRRVDLETDH [L7V]: -0.176
CPVKRRLDLETDH [P1C]: 1.42
PPVKKRLDLETDH [R5K]: -0.237
PPVRRRLDLETDH [K4R]: 1.87
PPTKRRLDLETDH [V3T]: 0.621
PDVKRRLDLETDH [P2D]: 0.828
